# Measured values from different studies.
# Every numbered part comes from another study and shows a few of its results, in no order. Values joined by “and” are separate records of one study, mostly repeats; a detail may differ.
# UniProt Q16584, sequence (whole entry, looked up): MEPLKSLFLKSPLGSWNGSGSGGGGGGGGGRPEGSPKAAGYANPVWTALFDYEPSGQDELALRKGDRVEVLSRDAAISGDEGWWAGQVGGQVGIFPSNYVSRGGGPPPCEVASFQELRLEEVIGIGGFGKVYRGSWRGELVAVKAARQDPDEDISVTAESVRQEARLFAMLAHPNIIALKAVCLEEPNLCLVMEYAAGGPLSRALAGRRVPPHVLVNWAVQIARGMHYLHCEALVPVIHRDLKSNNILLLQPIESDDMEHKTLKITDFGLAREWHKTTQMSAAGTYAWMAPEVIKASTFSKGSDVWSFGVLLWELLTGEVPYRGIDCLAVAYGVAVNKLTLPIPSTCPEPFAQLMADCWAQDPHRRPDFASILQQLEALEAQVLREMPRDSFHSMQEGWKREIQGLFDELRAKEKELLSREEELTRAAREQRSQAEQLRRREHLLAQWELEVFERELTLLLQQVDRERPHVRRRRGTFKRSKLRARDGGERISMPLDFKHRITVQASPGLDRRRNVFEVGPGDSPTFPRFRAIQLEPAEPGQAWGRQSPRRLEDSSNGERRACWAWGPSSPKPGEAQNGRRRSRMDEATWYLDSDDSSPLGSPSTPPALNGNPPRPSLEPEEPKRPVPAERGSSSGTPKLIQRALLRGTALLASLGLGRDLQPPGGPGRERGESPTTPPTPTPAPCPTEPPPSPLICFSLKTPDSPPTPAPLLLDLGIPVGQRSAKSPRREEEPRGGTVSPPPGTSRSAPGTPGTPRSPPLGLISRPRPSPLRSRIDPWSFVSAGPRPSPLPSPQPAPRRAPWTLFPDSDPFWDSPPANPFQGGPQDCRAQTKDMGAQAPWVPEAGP
# UniProt Q15569, sequence (whole entry, looked up): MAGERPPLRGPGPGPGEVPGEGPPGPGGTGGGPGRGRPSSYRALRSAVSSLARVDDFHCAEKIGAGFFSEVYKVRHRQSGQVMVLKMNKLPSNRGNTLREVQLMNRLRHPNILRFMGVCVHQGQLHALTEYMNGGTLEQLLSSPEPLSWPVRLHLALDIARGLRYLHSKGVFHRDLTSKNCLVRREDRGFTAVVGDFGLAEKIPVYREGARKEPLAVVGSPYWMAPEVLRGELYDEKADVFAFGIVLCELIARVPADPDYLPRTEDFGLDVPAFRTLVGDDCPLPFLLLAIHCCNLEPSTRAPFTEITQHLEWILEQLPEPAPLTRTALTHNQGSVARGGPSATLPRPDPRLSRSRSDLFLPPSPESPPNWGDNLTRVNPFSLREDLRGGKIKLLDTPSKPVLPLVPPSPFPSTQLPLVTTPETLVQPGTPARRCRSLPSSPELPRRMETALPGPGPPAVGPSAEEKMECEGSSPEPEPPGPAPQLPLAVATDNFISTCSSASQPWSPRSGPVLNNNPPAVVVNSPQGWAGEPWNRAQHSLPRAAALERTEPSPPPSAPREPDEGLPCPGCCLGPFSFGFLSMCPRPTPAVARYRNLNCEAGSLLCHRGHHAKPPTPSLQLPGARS
# UniProt Q00535, sequence (whole entry, looked up): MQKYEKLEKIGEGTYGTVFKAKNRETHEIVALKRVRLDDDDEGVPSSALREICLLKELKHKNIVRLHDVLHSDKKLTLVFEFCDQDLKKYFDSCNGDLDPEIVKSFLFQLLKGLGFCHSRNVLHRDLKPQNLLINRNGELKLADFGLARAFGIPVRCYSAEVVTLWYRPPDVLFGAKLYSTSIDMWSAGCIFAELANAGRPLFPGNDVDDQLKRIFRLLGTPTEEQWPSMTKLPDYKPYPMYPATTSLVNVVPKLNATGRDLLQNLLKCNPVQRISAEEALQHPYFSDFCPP
# UniProt Q13976, sequence (whole entry, looked up): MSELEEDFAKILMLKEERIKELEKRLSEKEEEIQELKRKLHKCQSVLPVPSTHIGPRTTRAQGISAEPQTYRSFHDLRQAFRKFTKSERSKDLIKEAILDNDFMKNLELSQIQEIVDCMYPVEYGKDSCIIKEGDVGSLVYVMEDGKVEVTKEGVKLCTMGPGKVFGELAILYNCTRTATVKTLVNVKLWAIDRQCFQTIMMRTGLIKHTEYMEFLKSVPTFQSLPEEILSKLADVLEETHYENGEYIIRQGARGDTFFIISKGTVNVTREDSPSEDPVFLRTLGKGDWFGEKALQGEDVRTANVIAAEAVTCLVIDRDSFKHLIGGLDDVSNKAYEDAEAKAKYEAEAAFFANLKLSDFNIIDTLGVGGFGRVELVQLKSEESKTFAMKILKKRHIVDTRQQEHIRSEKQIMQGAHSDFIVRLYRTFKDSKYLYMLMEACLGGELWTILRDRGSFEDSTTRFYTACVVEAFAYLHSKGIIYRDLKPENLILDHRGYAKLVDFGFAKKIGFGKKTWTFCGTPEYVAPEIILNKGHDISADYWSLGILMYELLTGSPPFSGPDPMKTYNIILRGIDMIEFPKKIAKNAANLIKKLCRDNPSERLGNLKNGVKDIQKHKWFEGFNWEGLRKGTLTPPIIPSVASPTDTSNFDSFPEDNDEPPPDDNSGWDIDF
# UniProt Q15208, sequence (whole entry, looked up): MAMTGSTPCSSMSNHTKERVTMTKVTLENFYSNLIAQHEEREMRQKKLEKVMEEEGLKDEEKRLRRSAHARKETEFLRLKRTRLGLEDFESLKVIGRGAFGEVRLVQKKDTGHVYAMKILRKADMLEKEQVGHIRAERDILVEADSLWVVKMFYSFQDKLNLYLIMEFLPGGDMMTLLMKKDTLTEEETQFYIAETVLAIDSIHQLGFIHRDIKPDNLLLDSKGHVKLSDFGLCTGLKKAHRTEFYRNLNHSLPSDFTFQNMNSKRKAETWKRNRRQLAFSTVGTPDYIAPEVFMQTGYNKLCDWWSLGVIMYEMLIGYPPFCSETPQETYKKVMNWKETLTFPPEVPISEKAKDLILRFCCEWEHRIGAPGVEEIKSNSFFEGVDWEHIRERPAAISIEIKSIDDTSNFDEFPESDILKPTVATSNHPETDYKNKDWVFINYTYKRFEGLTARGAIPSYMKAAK
# UniProt P48729, sequence (whole entry, looked up): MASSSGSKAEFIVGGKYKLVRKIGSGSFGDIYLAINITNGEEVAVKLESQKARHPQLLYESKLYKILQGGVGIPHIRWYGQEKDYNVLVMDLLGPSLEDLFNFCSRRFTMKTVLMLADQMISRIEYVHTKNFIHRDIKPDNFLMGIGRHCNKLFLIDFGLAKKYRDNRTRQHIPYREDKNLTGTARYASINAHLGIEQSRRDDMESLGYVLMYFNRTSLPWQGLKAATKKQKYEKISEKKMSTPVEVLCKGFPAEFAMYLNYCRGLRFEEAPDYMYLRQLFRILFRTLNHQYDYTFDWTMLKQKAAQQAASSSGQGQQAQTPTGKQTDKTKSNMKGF

# Study 1 — observed: cell-free assay; technique: competition with immobilised ligand; concentration: 1 µM
# Compound: Cn1cncc1[C@@](O)(COc1ccc(C#N)cc1-c1ccc(OC(F)(F)F)cc1)c1ccc(C#N)cc1
target,remaining binding
"Epidermal growth factor receptor (EGFR, Homo sapiens, UniProt P00533, G719S)",74%
"cGMP-dependent protein kinase 1 (PRKG1, Homo sapiens, UniProt Q13976)",94%
"Mitogen-activated protein kinase kinase kinase 11 (MAP3K11, Homo sapiens, UniProt Q16584)",100%
"Casein kinase I isoform alpha (CSNK1A1, Homo sapiens, UniProt P48729)",78%
"Cyclin-dependent kinase 5 (CDK5, Homo sapiens, UniProt Q00535)",96%
"Dual specificity testis-specific protein kinase 1 (TESK1, Homo sapiens, UniProt Q15569)",92%
"Citron Rho-interacting kinase (CIT, Homo sapiens, UniProt O14578)",97%
"Serine/threonine-protein kinase 38 (STK38, Homo sapiens, UniProt Q15208)",100%

# Study 2 — organism: Cryptosporidium parvum; species: neonatal calves; dose: dose not given; direction: direction not given
# Compound: CNC(=O)c1ccc(-c2cnn3ccc(C(=O)N(C)c4ccc(Cl)c(C(=O)OC)c4)cc23)cc1
setting,fecal consistency score
day 6 post-treatment,2 and 1
day 8 post-treatment,1 and 2 and 3
day 3 post-treatment,2 and 3 and 1

# Study 3 — observed: RNA clamping; technique: fluorescence polarization; concentration: concentration not given; setting: mean of two replicates; with: FAM-labelled poly r(AG)8 RNA
# Target: Eukaryotic initiation factor 4A-III (Homo sapiens, UniProt P38919)
# UniProt P38919, sequence (whole entry, looked up): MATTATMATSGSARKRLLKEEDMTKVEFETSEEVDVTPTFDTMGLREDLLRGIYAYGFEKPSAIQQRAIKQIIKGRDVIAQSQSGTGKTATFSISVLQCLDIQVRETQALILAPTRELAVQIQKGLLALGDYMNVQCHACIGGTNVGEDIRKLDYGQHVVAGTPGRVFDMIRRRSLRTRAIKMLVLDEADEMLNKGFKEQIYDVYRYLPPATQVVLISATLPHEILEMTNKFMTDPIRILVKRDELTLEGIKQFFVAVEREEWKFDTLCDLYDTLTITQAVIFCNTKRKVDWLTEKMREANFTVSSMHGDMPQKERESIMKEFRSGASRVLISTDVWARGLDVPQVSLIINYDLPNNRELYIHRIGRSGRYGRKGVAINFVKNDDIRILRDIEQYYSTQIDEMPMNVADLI
Compound,fluorescence polarization change [mP]
COC(=O)[C@@H]1[C@@H](O)[C@@]2(O)c3c(OC)cc(OC)cc3O[C@@]2(c2ccc(OC)cc2)[C@H]1c1ccccc1,6.8
COc1ccc([C@@]23Oc4cc(OC)cc(OC)c4[C@]2(O)c2nc(-c4ccc(N(C)C)cc4)[nH]c(=O)c2[C@H]3c2ccccc2)cc1,7.1
CCCCC1=N[C@@]2(O)[C@H](C(=O)OC)[C@@H](c3ccccc3)[C@]3(c4ccc(OC)cc4)Oc4cc(OC)cc(OC)c4[C@]23N1,38.6
COC(=O)[C@H]1[C@@H](c2ccccc2)[C@]2(c3ccc(OC)cc3)Oc3cc(OC)cc(OC)c3[C@@]1(O)C2=O,4.7
COc1ccc([C@@]23Oc4cc(OC)cc(OC)c4[C@]2(O)c2nc4n(c(=O)c2[C@@H]3c2ccccc2)CCC4)cc1,10
COc1ccc([C@@]23Oc4cc(OC)cc(OC)c4[C@]2(O)c2nc(-c4ccccc4)[nH]c(=O)c2[C@@H]3c2ccccc2)cc1,5.7

# Study 4 — organism: Staphylococcus aureus; strain: USA300
# Structure (SMILES): CCCCC[C@@H](O)CC(=O)N[C@H]1COC(=O)[C@H](CO)NC(=O)CNC(=O)[C@H]([C@@H](C)O)NC(=O)[C@H](Cc2ccccc2)NC(=O)[C@@H](Cc2c[nH]c3ccccc23)NC(=O)[C@@H]([C@H](C)O)NC(=O)[C@H](CC(N)=O)NC(=O)[C@@H]([C@H](C)O)NC(=O)[C@H](CC(C)C)NC(=O)[C@@H](Cc2c[nH]c3ccccc23)N(C)C(=O)CNC(=O)[C@H](CO)NC(=O)[C@@H](CO)NC1=O
setting,MIC [µg/mL]
with: menaquinone 16 µg/mL,> 64
with: menaquinone 64 µg/mL,> 64
with: menaquinone 32 µg/mL,> 64
with: menaquinone 2 µg/mL,64
with: menaquinone 0.25 µg/mL,32
with: ubiquinone 16 µg/mL,8

# For quick reference, copied from above (study 3):
Compound,fluorescence polarization change [mP]
COc1ccc([C@@]23Oc4cc(OC)cc(OC)c4[C@]2(O)c2nc(-c4ccc(N(C)C)cc4)[nH]c(=O)c2[C@H]3c2ccccc2)cc1,7.1
CCCCC1=N[C@@]2(O)[C@H](C(=O)OC)[C@@H](c3ccccc3)[C@]3(c4ccc(OC)cc4)Oc4cc(OC)cc(OC)c4[C@]23N1,38.6
